Published values collected from several papers.
Lines come from different studies, so protocols differ. ± gives the spread as reported.
Organism: Plasmodium falciparum

| Compound | assay | test system | conditions | measurement | result |
| --- | --- | --- | --- | --- | --- |
| Cc1cc(C(=O)N[C@@H](CC(=O)NC(C)(C)C)C(=O)NCCNC(=O)c2cc(-c3ccccc3)ccn2)no1 | parasite growth | NF54 | 72 h, gametocyte | EC50 | 0.16 µM |
| COc1cncc(-c2cc(F)cc(CNC(=O)c3cc(N4CC[C@@](C#N)(C5CC5)C4=O)cc(C)n3)c2)c1 | parasite growth | conditional knockdown control line | 72 h, with: 50 nM anhydrotetracycline | IC50 | 0.38 µM |
| COc1cc(C)c(-c2ccc(O)c3c2C[C@@H](C)N[C@@H]3C)c2cccc(O)c12 (single isomer, unassigned) | asexual parasite proliferation, SYBR Green I fluorescence | 7G8 |  | IC50 | 0.131 ± 0.027 µM |
| CC(C)(C)NC(=O)CC(NC(=O)CCc1ccccc1)C(=O)NCCNC(=O)c1cccc(-c2ccccc2)c1 (stereo not drawn) | parasite growth | NF54 | 24 h, gametocyte | EC50 | 0.0651 µM |
| CC1=N[C@H](C)Cc2c(-c3ccc4ccccc4c3)ccc(O)c21 | asexual parasite proliferation, SYBR Green I fluorescence | K1 |  | IC50 | 0.77 ± 0.31 µM |
| Cc1cc(N2CCC(CO)(C3CC3)C2=O)cc(C(=O)NCc2cc(F)cc(-c3cnn(C)c3)c2)n1 (stereo not drawn) | parasite growth | cPRS conditional knockdown line | 72 h, with: 3 nM anhydrotetracycline | IC50 | 0.01 µM |
| Cc1cc(C(=O)N[C@@H](CC(=O)NC(C)(C)C)C(=O)NCCNC(=O)c2cccc(-c3ccn[nH]3)c2)no1 | parasite growth | NF54 | 24 h, gametocyte | EC50 | 0.692 µM |
| Cc1cc(N2CC[C@@](C#N)(C3CC3)C2=O)cc(NC(=O)Cc2ccccc2)n1 | parasite growth | conditional knockdown control line | 72 h, with: 3 nM anhydrotetracycline | IC50 | 0.048 µM |
| COc1cccc2c(-c3ccc(O)c4c3CCNC4)ccc(O)c12 | asexual parasite proliferation, SYBR Green I fluorescence | 7G8 |  | IC50 | 0.183 ± 0.014 µM |
| CCNCC#CCNc1ccnc2cc(Cl)ccc12 | parasite growth, LDH |  |  | IC50 | 0.078 µM |
| COc1cccc2c(-c3ccc(O)c4c3C[C@@H](C)N[C@@H]4C)c(C)cc(O)c12 | asexual parasite growth, SYBR Green I | clinical isolate SB_04, Malawi |  | IC50 | 0.0121 ± 0.0011 µM |
| Cc1cc(C(=O)N[C@@H](CC(=O)NC(C)(C)C)C(=O)NCCNC(=O)c2cccc(-n3cccn3)c2)no1 | female gamete activation | NF54 | 48 h | EC50 | > 10 µM |

A few entries again:
| Compound | assay | test system | conditions | measurement | result |
| --- | --- | --- | --- | --- | --- |
| Cc1cc(C(=O)N[C@@H](CC(=O)NC(C)(C)C)C(=O)NCCNC(=O)c2cc(-c3ccccc3)ccn2)no1 | parasite growth | NF54 | 72 h, gametocyte | EC50 | 0.16 µM |
